{"data": "Values quoted from earlier work as cited in several papers", "note": "Compare with care: the assays were run in different laboratories. Numbers after ± are the reported error."}
{"SMILES": "Clc1cc2nc(c1)CNCCNCCNC2.[Cu+2]", "assay": "cyclic voltammetry", "system": "DMF", "setting": "scan rate 100 mV/s", "scale": "reference: Fc/Fc+", "endpoint": "anodic peak potential", "value": "-878 mV"}
{"SMILES": "CN1CCN(c2ccc3[nH]c(-c4ccc5[nH]c(-c6ccc(OCCCCNC(=O)c7ccc8c(c7)C(=O)OC87c8ccc(N(C)C)cc8[Si](C)(C)c8cc(N(C)C)ccc87)cc6)nc5c4)nc3c2)CC1", "system": "PBS with 0.1% SDS", "endpoint": "fluorescence quantum yield", "value": "0.538 ± 0.004"}
{"SMILES": "COc1ccc2c(c1)CN(C(=O)CCN1CCC(Cc3ccccc3)CC1)CCS2", "system": "dog sterile pericarditis AF model", "setting": "dose not given", "endpoint": "unbound plasma concentration", "value": "130 nM"}
{"SMILES": "CCCCCCCCCOC(=O)c1ccc(O)cc1", "assay": "octanol-water", "endpoint": "logP", "value": 5.66}
{"SMILES": "O=C(O)c1cccc(CN2Cc3cccc(n3)CN(Cc3cccc(C(=O)O)n3)Cc3cccc(n3)C2)n1", "assay": "protonation constant", "system": "0.1 M KCl", "endpoint": "log KHL", "value": 8.41}
{"SMILES": "COc1ccc(Nc2nc(Nc3ccc(OCC[18F])cc3)ncc2Br)cc1", "system": "S180 tumour-bearing mice, lung", "setting": "intravenous, 60 min", "endpoint": "tissue uptake", "value": "4.23 ± 0.57 %ID/g"}
{"SMILES": "[Cu+2].c1cc2nc(c1)CNCCNCCNC2", "assay": "cyclic voltammetry", "system": "DMF", "setting": "scan rate 100 mV/s", "scale": "reference: Fc/Fc+", "endpoint": "anodic peak potential", "value": "-902 mV"}
{"SMILES": "CC1(N(CC(=O)O)CC(=O)O)CN(CC(=O)O)CCN(CC(=O)O)C1", "assay": "pH-potentiometry, refers to: logK3H", "system": "0.1 M KCl", "setting": "25 °C", "endpoint": "protonation constant (log)", "value": 3.78}
{"SMILES": "C[C@@H]1O[C@@H](O[C@@H]2[C@@H](O)[C@H](O)[C@@H](CO)O[C@H]2c2c(O)cc(O)c3c(=O)cc(-c4ccc(O)cc4)oc23)[C@H](O)[C@H](O)[C@H]1O", "endpoint": "logP", "value": -0.9}
{"SMILES": "COc1cc2nc(c1)CNCCNCCNC2.[Cu+2]", "assay": "cyclic voltammetry", "system": "DMF", "setting": "scan rate 100 mV/s", "scale": "reference: Fc/Fc+", "endpoint": "half-wave potential", "value": "-988 mV"}
{"SMILES": "CC(C)COC(=O)c1ccc(O)cc1", "assay": "octanol-water", "endpoint": "logP", "value": 3.2}
{"SMILES": "Cc1ccc2c(c1)nc(CCN1C(=O)c3cccc4cccc(c34)C1=O)n2-c1ccncc1", "system": "Sprague-Dawley rat", "setting": "oral, 10 mg/kg", "endpoint": "half-life", "value": "1.8 h"}
{"SMILES": "FC(F)(F)c1cc2nc(c1)CNCCNCCNC2.[Cu+2]", "assay": "cyclic voltammetry", "system": "DMF", "setting": "scan rate 100 mV/s", "scale": "reference: Fc/Fc+", "endpoint": "cathodic peak potential", "value": "-1000 mV"}
{"SMILES": "O=C(O)CN1CCN(CC(=O)O)CCN(CC(=O)O)CC1", "system": "0.1 M Me4NCl", "endpoint": "log KH1", "value": 13.2}
{"SMILES": "Cc1cc(-c2ccc(C#N)cc2)cc(C)c1Oc1ccnc(Nc2ccc(C#N)cc2)n1", "system": "human liver microsomes", "endpoint": "intrinsic clearance", "value": "47.4 µL/min/mg"}
{"SMILES": "COc1ccc2c(c1)O[B-]1(c3ccccc3)OC(=O)C(c3ccccc3)=N[N+]1=C2 (centres unmarked)", "system": "buffer with 1.5% acetonitrile", "setting": "concentration not given, pH 7", "endpoint": "hydrolysis half-life", "value": "2 min"}
{"SMILES": "CNc1nc(N)nc2c1ncn2[C@@H]1O[C@H](CO[P@](=O)(O)N[C@@H](C)C(=O)O)[C@@H](O)[C@@]1(C)F", "system": "plasma", "endpoint": "plasma half-life", "value": "~3 h"}
{"SMILES": "COC1=CC(c2ccc[nH]2)=NC1=CNC12CC3CC(CC(C3)C1)C2.Cl", "assay": "metabolic stability", "system": "mouse liver microsomes", "endpoint": "half-life", "value": "0.192 h"}
{"SMILES": "CN1CCN(c2ccc3[nH]c(-c4ccc5[nH]c(-c6ccc(OCCCCNC(=O)c7ccc8c(c7)C7(OC8=O)c8ccc(N(C)C)cc8C(C)(C)c8cc(N(C)C)ccc87)cc6)nc5c4)nc3c2)CC1", "system": "PBS", "setting": "2 µM, together with: 30 µM hairpin DNA", "endpoint": "fluorescence quantum yield", "value": "0.282 ± 0.005"}
{"SMILES": "O=C1NC(=O)/C(=C/c2ccc3ncnc(N4CCC(F)CC4)c3n2)S1", "system": "mouse", "endpoint": "oral bioavailability", "value": "100%"}
{"SMILES": "CCCCCC(=O)NC(CC(=O)N(CC)CC)C(=O)NC(Cc1ccc(F)cc1)C(=O)NC(Cc1ccc(F)cc1F)C(=O)C1(C)CO1 (centres unmarked)", "endpoint": "plasma half-life", "value": "2.4 h"}
{"SMILES": "CCCCCCCCCCCCOC(=O)c1ccc(O)cc1", "setting": "pH 7.4", "endpoint": "logD", "value": 6.23}
{"SMILES": "O=C(O)CN1CCNCCNCCN(CC(=O)O)CC1", "system": "0.1 M KCl", "endpoint": "log KH3", "value": 3.74}
{"SMILES": "C/C(N)=N/C(=N\\S(=O)(=O)c1ccc(C(F)(F)F)cc1)N1C[C@H](c2ccccc2)C(c2ccc(Cl)cc2)=N1", "system": "MDR1 knockout mouse", "endpoint": "brain to plasma ratio", "value": "49%"}
{"SMILES": "COc1ccc(CNc2nc([C@H]3CC[C@H](C(=O)O)CC3)nc3sc4ccccc4c23)cc1Cl", "system": "mouse", "endpoint": "half-life", "value": "0.3 h"}
{"SMILES": "Cc1cc(NC(=O)Cn2nnc(-c3cccc(F)c3)n2)n(C2CCCCC2)n1", "system": "mouse, mouse plasma", "endpoint": "plasma stability", "value": "unstable"}
{"SMILES": "CCC(C)OC(=O)c1ccc(O)cc1 (centres unmarked)", "assay": "octanol-water", "endpoint": "logP", "value": 3.2}
{"SMILES": "O=C(O)CN1CCNCCN(CC(=O)O)Cc2cccc(n2)C1", "setting": "0.15 M NaCl", "endpoint": "sum of log KiH", "value": 23.7}
{"SMILES": "O=C(O)CCCCC1(N(CC(=O)O)CC(=O)O)CN(CC(=O)O)CCN(CC(=O)O)C1", "assay": "pH-potentiometry, refers to: logK1H", "system": "0.15 M NaCl", "setting": "25 °C", "endpoint": "protonation constant (log)", "value": 10.5}
{"SMILES": "O=C(O)c1cc2cc(O)ccc2n1Cc1ccc(Cl)c(C(F)(F)F)c1", "endpoint": "logP", "value": 4.98}
{"SMILES": "CN1CCN(c2ccc3[nH]c(-c4ccc5[nH]c(-c6ccc(OCCCCNC(=O)c7ccc8c(c7)C7(OC8=O)c8ccc(N(C)C)cc8[Si](C)(C)c8cc(N(C)C)ccc87)cc6)nc5c4)nc3c2)CC1", "system": "PBS", "setting": "2 µM, together with: 30 µM hairpin DNA", "endpoint": "fluorescence quantum yield", "value": "0.156 ± 0.002"}
{"SMILES": "Cc1ncsc1-c1ccc(CNC(=O)[C@@H]2C[C@@H](O)CN2C(=O)[C@@H](NC(=O)COCCOCCOCCNC(=O)C[C@@H]2N=C(c3ccc(Cl)cc3)c3c(sc(C)c3C)-n3c(C)nnc32)C(C)(C)C)cc1", "system": "mouse", "setting": "intravenous, 5 mg/kg", "endpoint": "terminal half-life", "value": "1.04 h"}
{"SMILES": "CCN(CC)CCNC(=O)c1c(C)[nH]c(/C=C2\\C(=O)Nc3ccc(F)cc32)c1C", "system": "human", "setting": "concentration not given", "endpoint": "Cmax", "value": "181 nM"}
{"SMILES": "Oc1cccc(-c2cccc(O)n2)n1.[Cl-].[Cl-].[Ru+2].c1cnc2c(c1)ccc1cccnc12.c1cnc2c(c1)ccc1cccnc12", "setting": "pH 7.4", "endpoint": "log D octanol/water", "value": 1.6}
{"SMILES": "CCn1c(=O)c(-c2cc(NC(=O)Nc3ccccc3)c(F)cc2Br)cc2cnc(N)cc21", "system": "Chinese patients", "setting": "dose not given", "endpoint": "median trough concentration", "value": "655 ng/mL"}
{"SMILES": "Ic1cc2nc(c1)CNCCNCCNC2.[Cu+2]", "assay": "cyclic voltammetry", "system": "DMF", "setting": "scan rate 100 mV/s", "scale": "reference: Fc/Fc+", "endpoint": "anodic peak potential", "value": "-811 mV"}
{"SMILES": "CN1CCN(c2ccc3[nH]c(-c4ccc5[nH]c(-c6ccc(OCCCCNC(=O)c7ccc8c(c7)C(=O)OC87c8ccc(N(C)C)cc8C(C)(C)c8cc(N(C)C)ccc87)cc6)nc5c4)nc3c2)CC1", "system": "PBS", "setting": "2 µM, together with: 30 µM hairpin DNA", "endpoint": "fluorescence quantum yield", "value": "0.432 ± 0.001"}
{"SMILES": "COc1cccc2c1C(=O)c1c(O)c3c(c(O)c1C2=O)C[C@@](O)(C(=O)CO)C[C@@H]3O[C@H]1C[C@H](N)[C@H](O)[C@H](C)O1", "endpoint": "logP", "value": 1.62}
{"SMILES": "O=C(O)CN(CC(=O)O)[C@H]1CCCC[C@@H]1N(CC(=O)O)Cc1ccccn1", "setting": "0.15 M NaCl", "endpoint": "sum of log KiH", "value": 19.7}
{"SMILES": "COc1cc(-c2nc3ccccc3s2)cc(CN2CCN(CC(=O)O)CCN(Cc3cc(-c4nc5ccccc5s4)cc(OC)c3O)CC2)c1O", "setting": "68Ga(III) complex", "endpoint": "logD", "value": 1.66}
{"SMILES": "C[C@@H](Nc1c(-c2c(F)cc(C#N)cc2F)c(Cl)nc2ncnn12)C(C)(C)C", "system": "wild-type mice", "setting": "intraperitoneal, 16 h, total concentrations", "endpoint": "brain/plasma AUC ratio", "value": 1}
{"note": "Repeated from above:"}
{"SMILES": "CCn1c(=O)c(-c2cc(NC(=O)Nc3ccccc3)c(F)cc2Br)cc2cnc(N)cc21", "system": "Chinese patients", "setting": "dose not given", "endpoint": "median trough concentration", "value": "655 ng/mL"}
{"SMILES": "Cc1ncsc1-c1ccc(CNC(=O)[C@@H]2C[C@@H](O)CN2C(=O)[C@@H](NC(=O)COCCOCCOCCNC(=O)C[C@@H]2N=C(c3ccc(Cl)cc3)c3c(sc(C)c3C)-n3c(C)nnc32)C(C)(C)C)cc1", "system": "mouse", "setting": "intravenous, 5 mg/kg", "endpoint": "terminal half-life", "value": "1.04 h"}
{"SMILES": "CCC(C)OC(=O)c1ccc(O)cc1 (centres unmarked)", "assay": "octanol-water", "endpoint": "logP", "value": 3.2}
